Published values pooled from the literature.
Parts stem from different laboratories: compare values within a part only. Positions count from the first letter of the parent shown.

Study 1
Target: Prothrombin, mature alpha-thrombin (F2, Homo sapiens, UniProt P00734)
Technique: aptamer microarray, sandwich
Molecule type: DNA with 2'F-ANA
Medium: in vitro
Tested at: 200 nM
Notes: whole 15-mer aptamer, many near background
Together with: Cy3 exosite-II aptamer, 400 nM
Reading: higher = stronger binding
Oligonucleotide: GGTTGGTGTGGTTGG
| Modification | mean fluorescence intensity [a.u.] |
| --- | --- |
| 2'F-ANA at 1 2 6 8 9 11 14 15 | 54.4 |
| 2'F-ANA at 1 8 10 11 12 13 15 | 76.3 |
| 2'F-ANA at 1 2 3 4 9 12 13 15 | 247 |
| 2'F-ANA at 2 3 4 5 7 9 12 15 | 197 |
| 2'F-ANA at 2 3 5 7 9 13 15 | 82.2 |
| 2'F-ANA at 1 2 3 4 5 6 8 9 12 13 14 15 | 51.1 |
| 2'F-ANA at 2 3 4 6 7 13 15 | 411 |
| 2'F-ANA at 1 2 3 4 5 6 7 10 13 | 51.1 |
| 2'F-ANA at 2 3 8 11 12 15 | 1060 |
| 2'F-ANA at 3 5 11 12 | 230 |
| 2'F-ANA at 3 7 12 | 1620 |
| 2'F-ANA at 1 3 5 7 11 15 | 57.1 |
| 2'F-ANA at 3 5 6 10 12 14 | 51.2 |
| 2'F-ANA at 1 6 8 10 12 | 66.4 |
| 2'F-ANA at 1 4 5 7 10 11 | 47.6 |
| 2'F-ANA at 1 2 4 7 11 13 14 15 | 52.3 |
| 2'F-ANA at 1 3 4 7 8 11 12 13 14 15 | 115 |
| 2'F-ANA at 3 4 7 8 10 11 12 15 | 339 |
| 2'F-ANA at 1 3 6 7 9 10 11 12 14 15 | 63 |
| 2'F-ANA at 2 3 4 10 13 15 | 217 |
| 2'F-ANA at 1 2 3 4 7 8 9 10 12 15 | 84.5 |
| 2'F-ANA at 2 3 13 | 801 |
| 2'F-ANA at 1 4 6 7 12 13 14 15 | 54.9 |
| 2'F-ANA at 1 6 7 9 10 12 13 | 66.3 |
| 2'F-ANA at 1 2 3 4 5 6 7 8 11 13 14 15 | 68.1 |

Study 2
Target: Sal-like protein 4, full length isoform B (SALL4, Homo sapiens, UniProt Q9UJQ4-2, residues 1-616)
Technique: universal PBM
Molecule type: double-stranded DNA, one strand shown
Medium: in vitro
Tested at: not given
Notes: 8-mer, flanks averaged, mean of replicates
Reading: higher = stronger binding
| Oligonucleotide | E-score |
| --- | --- |
| GCAACCGA | -0.128 |
| AATCAGAA | 0.0251 |
| AAGGGCTC | -0.17 |
| AGCCTGCC | -0.247 |
| ACGCGCAT | 0.0669 |
| CTGTAGCC | -0.232 |
| AAAGAAGT | 0.0744 |
| GTGTTACA | 0.212 |
| ACCCGGGG | -0.396 |
| GTTGGCCA | -0.297 |
| GGTTGTGA | -0.0233 |
| CAGACCCG | -0.294 |
| TCTAACCA | 0.0804 |
| TTACGGAA | 0.0618 |
| ACCGCTAG | -0.177 |
| ATGAGTGA | 0.102 |
| CCGGTATA | -0.0239 |
| CTTTGTAA | 0.142 |
| AGTTGAAG | -0.00158 |
| ACCTATAA | 0.247 |
| AGCCCAAA | 0.0897 |

Study 3
Target: CCNA2, cyclin fold, Cln2 fusion (human)
Technique: yeast growth competition, sequencing
Medium: yeast
Notes: strong parent motif
Reference: not given
Reading: higher = stronger binding
Parent: MICAL3 docking peptide (human); LQLRRQLSFSEDS
| Substitution | normalised enrichment score |
| --- | --- |
| L3K | 1.06 |
| D12I | 3.84 |
| D12Y | 3.35 |
| E11F | 2.63 |
| R5K | 1.31 |
| S8W | 2.22 |
| Q2F | 3.37 |
| D12C | 4.33 |
| R5N | 0.519 |
| L3C | 5.55 |
| S10Q | 2.15 |
| D12N | 3.5 |
| Q6H | 3.13 |
| Q6F | 1 |
| D12S | 3.18 |
| S8I | 4.75 |
| E11N | 3.32 |

Study 4
Target: Ras GTPase-activating protein-binding protein 1, RRM domain (G3BP1, Homo sapiens, UniProt Q13283)
UniProt Q13283, sequence (whole entry, looked up): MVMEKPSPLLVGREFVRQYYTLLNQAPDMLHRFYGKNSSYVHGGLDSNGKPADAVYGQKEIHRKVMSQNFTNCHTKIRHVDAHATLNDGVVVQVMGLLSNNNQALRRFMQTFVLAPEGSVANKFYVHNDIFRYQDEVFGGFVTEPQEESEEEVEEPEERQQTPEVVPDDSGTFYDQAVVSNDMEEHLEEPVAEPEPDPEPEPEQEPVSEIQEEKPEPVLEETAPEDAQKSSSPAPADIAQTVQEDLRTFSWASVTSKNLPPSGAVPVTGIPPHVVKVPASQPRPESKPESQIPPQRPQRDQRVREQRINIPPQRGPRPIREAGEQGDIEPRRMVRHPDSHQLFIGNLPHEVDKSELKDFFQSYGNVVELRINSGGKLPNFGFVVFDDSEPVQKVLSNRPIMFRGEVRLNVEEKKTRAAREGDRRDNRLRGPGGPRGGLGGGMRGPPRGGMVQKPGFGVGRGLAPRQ
Technique: RNA Bind-n-Seq
Molecule type: RNA
Medium: in vitro
Tested at: 1 µM
Notes: whole 134-nt RNA, ends assumed
Together with: 150 mM KCl
Reference: input library
Reading: higher = stronger binding
Shared flanks, not repeated: GGGAGUUCUACAGUCCGACGAUC … UGGAAUUCUCGGGUGUCAAGG
| Oligonucleotide | log2 enrichment |
| --- | --- |
| UGGCCCUGGUGGCAUGCGGGGAGGAAGGGGUGGCCUCAUGGAUCGUGGUGGUCCCGGUGGAAUGUUCAGAGGUGGCCGUGGUGGAGACAG | 0.908 |
| ACCAUGCAGGUGGGCAUCUUUGGGAAGUGGGGCAAGGGGGGAAUAGGGAGGGGGGUAACACUUUGGGAACAGGUGGUCCCAGGUCGUUUC | 1.01 |
| UCCUGUGCUACACAUCGUAUGUACCGAAUCGGCCCCCCGGGCCCCCCGGCCCCCCGGGGAAAGUAUUAUGUUACGCCGUUCGGAUCUGCA | -0.394 |
| UCCUGUGCUACACAUCGUAUGUACCGAAUCGGGAAAAAGGGUUUUUGGGUUUUUUUGGGAAAGUAUUAUGUUACGCCGUUCGGAUCUGCA | -0.0851 |
| UCAAGUCCUGUGCUACACAUCGUAUGUACCGAAUCGGGCCGGGGCCGGGCCGGGAAAGUAUUAUGUUACGCCGUUCGGAUCUGCACUUCC | -0.687 |
| CACACACAACACGCACCCACACAGACACAGAGGGAAGGGGUUGGGAUGGGGACAGGGUGCACAGCAGGGCGGGGUAGGACCCCAGCCCCU | -0.0393 |
| UGGGAGGUGGAUUUUGUUUAUUUUUUUAGCUCAUUUCCAGGGGUGGGAAUUGUUUUUUAAUAUGUGUCAUGAAUAAAGUUGUUUUUGAAA | 2.19 |
| GUCCUGUGCUACACAUCGUAUGUACCGAAUCGGGAAAAAGGGGAAAAAGGAAAAAGGGGAAAGUAUUAUGUUACGCCGUUCGGAUCUGCA | 0.0701 |
| GCAGGAAGUAAAAACAAAUGGAAAUGCUUCGGAUAGUGGCAGGGGUGGGGGUUGCUAAGGAAAGGGUGGGAUGGGAGUGGGUAACGAGUU | 0.811 |
| AAGUCCUGUGCUACACAUCGUAUGUACCGAAUCGGGGUGGGGUUUUUGGGGUGGGGAAAGUAUUAUGUUACGCCGUUCGGAUCUGCACUU | 1.08 |
| CUGUGCUACACAUCGUAUGUACCGAAUCGGAAAAAAAGGGAAAAAAAGGGGAAAAAAAGGGAAAGUAUUAUGUUACGCCGUUCGGAUCUG | 0.173 |
| UCAAGUCCUGUGCUACACAUCGUAUGUACCGAAUCGGUUUGGAAAAAGGAAAGGAAAGUAUUAUGUUACGCCGUUCGGAUCUGCACUUCC | -0.157 |
| CCUCAAGUCCUGUGCUACACAUCGUAUGUACCGAAUCGGGGCGGCGGCGGGGAAAGUAUUAUGUUACGCCGUUCGGAUCUGCACUUCCAG | -0.314 |
| AAGUCCUGUGCUACACAUCGUAUGUACCGAAUCGGGAAAAGGGAAAAGGAAAAGGGGAAAGUAUUAUGUUACGCCGUUCGGAUCUGCACU | 0.104 |

Study 5
Target: Histone acetyltransferase KAT6A, both winged helices, GST fusion (KAT6A, Homo sapiens, UniProt Q92794, residues 1-181)
Technique: protein binding microarray
Molecule type: double-stranded DNA, one strand shown
Medium: in vitro
Tested at: not given
Notes: 8-mer, flanks averaged, mean of 2 arrays, mostly near background
Reference: not given
Reading: higher = stronger binding
Residues (chain): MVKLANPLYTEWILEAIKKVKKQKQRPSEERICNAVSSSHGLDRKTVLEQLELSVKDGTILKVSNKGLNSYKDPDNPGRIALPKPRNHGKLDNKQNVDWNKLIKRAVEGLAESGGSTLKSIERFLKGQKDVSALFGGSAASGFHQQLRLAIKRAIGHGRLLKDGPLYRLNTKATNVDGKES
| Oligonucleotide | E-score |
| --- | --- |
| GTCTTAAC | -0.132 |
| ATAGATCC | -0.0539 |
| ACGCCATG | 0.0284 |
| AAAACAAA | -0.0776 |
| ACGCCCGA | 0.252 |
| CTTGTAGC | -0.0389 |
| AGGCGTAT | -0.0554 |
| AAGATCCC | -0.0315 |
| GCAGAGGA | -0.176 |
| CGAGAAAC | 0.00535 |
| AGCGGTAT | 0.226 |
| ATCATGAT | -0.18 |
| AGGAGCTC | -0.125 |
| ATTGGGTG | -0.124 |
| TCACTCGA | -0.188 |
| CAGGGGGC | -0.0317 |
| CCGTATCG | 0.261 |
| CTGCAAGA | 0.0788 |
| AATGCTCA | -0.137 |
| ACTTACAA | -0.0369 |
| CGCTTTGA | 0.111 |
| GTTCTAGA | -0.0679 |
| CAGAGTAG | -0.171 |
| ACGATTTG | -0.0906 |
| ACACGCAT | 0.143 |

Study 6
Target: ABI1, truncated, D143A, DHFR fusion (Arabidopsis thaliana)
Technique: DHFR PCA, deep sequencing
Medium: yeast
Notes: methotrexate growth selection, single substitutions
Together with: (+)-ABA 2500 µM
Reference: wild-type fitted maximum
Reading: higher = stronger binding
Parent: PYL1, truncated, DHFR fusion (Arabidopsis thaliana); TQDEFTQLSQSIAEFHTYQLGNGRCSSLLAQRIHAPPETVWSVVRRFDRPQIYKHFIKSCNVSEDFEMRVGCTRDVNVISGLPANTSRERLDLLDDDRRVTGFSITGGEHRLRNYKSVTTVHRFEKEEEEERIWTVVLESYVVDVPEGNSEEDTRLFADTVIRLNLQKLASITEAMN; partner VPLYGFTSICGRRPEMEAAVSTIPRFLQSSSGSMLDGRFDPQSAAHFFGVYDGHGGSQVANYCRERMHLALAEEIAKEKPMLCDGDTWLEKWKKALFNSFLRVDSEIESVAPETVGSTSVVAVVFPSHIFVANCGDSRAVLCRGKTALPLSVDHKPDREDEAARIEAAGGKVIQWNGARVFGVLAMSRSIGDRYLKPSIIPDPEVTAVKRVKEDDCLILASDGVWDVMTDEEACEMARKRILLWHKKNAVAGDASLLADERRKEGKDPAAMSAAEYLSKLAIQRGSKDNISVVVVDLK
| Substitution | relative binding score [%] |
| --- | --- |
| R49K | 94.9 |
| D96S | 87.3 |
| S63C | 97.2 |
| D48Q | 81 |
| H16F | 44.7 |
| I57M | 88 |
| T73Y | 96.5 |
| G71T | 77.7 |
| F47Q | 20.1 |
| K168D | 76.1 |
| H34K | 98.8 |
| Q2R | 94.8 |
| T73Q | 102 |
| S171I | 93.7 |
| E129Q | 99.9 |
| D97G | 98.6 |
| G108W | 42.4 |
